Published values from different studies.
Numbered parts are unrelated; each lists some results of a single study. Positions count from the first letter of the parent shown.

Series 1 — technique: aptamer microarray, sandwich; form: DNA with 2'F-ANA; medium: in vitro; concentration: 200 nM; with: Cy3 exosite-II aptamer, 400 nM; direction: higher = stronger binding; strand: GGTTGGTGTGGTTGG
Target: Prothrombin, mature alpha-thrombin (F2, Homo sapiens, UniProt P00734)
Notes: whole 15-mer aptamer, many near background
For `2'F-ANA at 1 2 3 4 5 6 7 8 12 13 14 15`, “mean fluorescence intensity” read 182 a.u.
Under “mean fluorescence intensity”, `2'F-ANA at 1 2 3 5 6 7 10 13` is recorded as 48.1 a.u.
Under “mean fluorescence intensity”, `2'F-ANA at 3 6 8 10 12 13 15` is recorded as 514 a.u.
Under “mean fluorescence intensity”, `2'F-ANA at 5 7 8 11 13` is recorded as 66.2 a.u.
`2'F-ANA at 1 2 3 5 8 9 10 12` — result for “mean fluorescence intensity”: 51.4 a.u.
Under “mean fluorescence intensity”, `2'F-ANA at 5 7 10 11 13 14 15` is recorded as 47.8 a.u.
Under “mean fluorescence intensity”, `2'F-ANA at 1 3 6 7 8 9 13 14 15` is recorded as 84.6 a.u.
Under “mean fluorescence intensity”, `2'F-ANA at 1 2 3 5 9 11 14` is recorded as 46.1 a.u.
For `2'F-ANA at 1 3 5 7 9 11 12 13 15`, “mean fluorescence intensity” read 74.7 a.u.
`2'F-ANA at 1 3 6 7 9 12 13` — result for “mean fluorescence intensity”: 348 a.u.
`2'F-ANA at 1 3 6 7 9 11 12 13 15` — result for “mean fluorescence intensity”: 286 a.u.
`2'F-ANA at 2 4 5 10 12 14 15`: “mean fluorescence intensity” 47.5 a.u.
`2'F-ANA at 4 5 6 7 9 11 13`: “mean fluorescence intensity” 55.6 a.u.
`2'F-ANA at 4 5 8 10 15` — result for “mean fluorescence intensity”: 57.9 a.u.
Under “mean fluorescence intensity”, `2'F-ANA at 1 3 4 5 8 9 12 13 14` is recorded as 44.8 a.u.
`2'F-ANA at 4 7 8 9 10 11 13` — result for “mean fluorescence intensity”: 78.7 a.u.
Under “mean fluorescence intensity”, `2'F-ANA at 2 4 7 9 10 12 15` is recorded as 155 a.u.
For `2'F-ANA at 1 3 5 6 7 8 9 11 14 15`, “mean fluorescence intensity” read 49.4 a.u.
`2'F-ANA at 4 6 7 9 10 15`: “mean fluorescence intensity” 103 a.u.
`2'F-ANA at 3 5 7 10 14 15` — result for “mean fluorescence intensity”: 49.2 a.u.

Series 2 — technique: RNA Bind-n-Seq; form: RNA; medium: in vitro; concentration: not given; relative to: input RNA pool; direction: higher = stronger binding
Target: RING finger protein unkempt homolog, zinc fingers 1-6, GST-SBP tag (UNK, Homo sapiens, UniProt Q9C0B0, residues 30-357)
UniProt Q9C0B0, sequence (30-357, looked up): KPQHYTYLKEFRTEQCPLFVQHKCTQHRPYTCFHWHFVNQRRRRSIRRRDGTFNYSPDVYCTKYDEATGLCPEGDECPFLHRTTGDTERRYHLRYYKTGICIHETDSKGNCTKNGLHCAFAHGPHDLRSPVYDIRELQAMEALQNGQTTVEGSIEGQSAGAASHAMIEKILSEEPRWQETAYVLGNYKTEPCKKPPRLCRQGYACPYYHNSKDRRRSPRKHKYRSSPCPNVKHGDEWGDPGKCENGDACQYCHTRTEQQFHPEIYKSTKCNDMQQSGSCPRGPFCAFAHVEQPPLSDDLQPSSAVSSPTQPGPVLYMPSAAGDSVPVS
Notes: RNA with constant flanks, human and mouse sites, ends assumed
Constant ends, left off below: GGGAGUUCUACAGUCCGACGAUC … CAACAGAGGAUUGAGCAUCA
`CUUCCCUUUGGAGACAAAGACACAAAAUCCAAAGUGACCCUGCUGGAAGGUGACCAUGUUAGGUUUAAUAUUUCAACAGACCGACGUGACAAAUUGGAACGAGCAACCAACAUAGAGGUU` has a bound/input enrichment of 0.277 ratio.
The bound/input enrichment of `GGCUCUACAGCGAUUAAGAAGAAACAACAAGAUGUGCUUGGUUUCCUAGAAGCCAACAAAAUAGGAUUUGAAGAAAAAGAUAUUGCAGCCAAUGAAGAGAAUCGGAAGUGGAUGAGAGAA` is reported as 1.08 ratio.
The bound/input enrichment of `UUUUUUACACCAUACGUGUAUCCAGCCACAUGGCCAGAAGAUGACAUCUUCCGACAAGCUAUUAGUCUUCUGAUUGUAACAAAUGUUGGUGCUUACAUCCUUUAUUUCUUCUGUGCAACA` is reported as 0.468 ratio.
With `CUAAUCCCCUUCGUUGCUCCACCACUGGUCAUGCUGAUGACAAAAACUUAUAUUCCCAUAUUAGCUUUUACUCAGAUGGCUUAUGGAGCCAGUUUCCUAUCUUUCUUGGGUGGGAUCAGA` the bound/input enrichment was 0.382 ratio.
`CUGGUGUGCCAGGAAAGUACUAAAUUUAAGAAUGUCUGGACAACUCAUUCCAGGUCACCUAUAGCCUAUGAGAGAGGAAGAAUAUAUUUUGACAAUUAUCGGCGCUGUGUCAGCAGUGUU` has a bound/input enrichment of 1.49 ratio.
With `UACACAAAAAGUUGUGUCAUAACUUACCCAGAUAUGUUUUUCUAUCAUUUGAAACCUUUUUAGCUACUGUUUGUUUUCAUUCAACUAACAAACAUAUUCCAAUAAUAAAAGCAGUAUAUA` the bound/input enrichment was 4.4 ratio.
`GGGCAGACUAAGACAGUCAGAGUGUUCCGCUUUAUAACUGAUAACACUGUAGAAGAAAGAAUAGUAGAACGUGCUGAGAUGAAACUCAGACUGGAUUCAAUAGUCAUUCAACAAGGGAGG` has a bound/input enrichment of 1.48 ratio.
`CGUGGUGUUUCCUUUACUUUUGGAGCUGAUGUAGUCAGUAAAUUUCUGAAUCGUCAUGAUUUAGAUUUGAUUUGUCGAGCUCAUCAGGUGGUGGAAGAUGGAUAUGAAUUUUUUGCUAAA` has a bound/input enrichment of 0.193 ratio.
With `CUCUUGGAGAAGUUAUAUAAGGUAAAUCUUAAAGUGAAGCAUGUGGAAUAUGAUACAUUUUACAUUCCUGAGAUUUCCAAUCUCGUGGACAUUCAGGAAGACUACCUCAUGUGGUUCUUG` the bound/input enrichment was 0.116 ratio.
With `GGAACCUGCCGGGGCAGCGGACGUUGGAAGGGCGCUGGGCCUCGGCUGGGACCGUUCAUGUAGCAGCAACCGGCGGCGGCUGCCGCAGAGCAGCGUUCGGUUUUGUUUUUAAAUUUUGAA` the bound/input enrichment was 0.649 ratio.
With `CCAUCAGCCCACCCUAUCCCAUUUUGUCCCAUUCCCGUCUACCCCAGGGCCUACCUUCCCACCUCGCUGCUUCCUCCAGGAAUCAUUGGUGGUGAAUAUGAUGAGAGGCCGAUACUGCCU` the bound/input enrichment was 0.272 ratio.

Series 3 — technique: DHFR PCA, dose-response; medium: yeast; notes: Hill fit, mean, not affinity; with: (+)-ABA, dose series; direction: lower = more sensitive
Target: ABI1, truncated, D143A, DHFR fusion (Arabidopsis thaliana, UniProt P49597)
Starting sequence: PYL1, truncated, DHFR fusion (Arabidopsis thaliana, UniProt Q8VZS8); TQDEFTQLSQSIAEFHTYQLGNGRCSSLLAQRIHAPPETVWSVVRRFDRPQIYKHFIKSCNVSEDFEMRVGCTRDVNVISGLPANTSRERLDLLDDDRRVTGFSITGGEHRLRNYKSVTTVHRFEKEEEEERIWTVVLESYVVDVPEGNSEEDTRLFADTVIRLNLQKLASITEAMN
`F124R` gave an ABA EC50 of 23.9 µM.
The ABA EC50 of `G107N` is reported as 59.8 µM.
With `R46G` the ABA EC50 was 39.1 µM.
With `E14K` the ABA EC50 was 4.53 µM.
For `L20D`, the ABA EC50 was 1.98 µM.
With `Y18A` the ABA EC50 was 11.5 µM.
`E174C` has an ABA EC50 of 12.3 µM.
`R69C` gave an ABA EC50 of 2.87 µM.
The ABA EC50 of `C60I` is reported as 18 µM.
With `I133D` the ABA EC50 was 0.85 µM.
`Q2N` has an ABA EC50 of 2.01 µM.
`P83C` gave an ABA EC50 of 130 µM.
`E139M` has an ABA EC50 of 14.7 µM.
`E139W` gave an ABA EC50 of 6.25 µM.
`A175C` has an ABA EC50 of 2.25 µM.
`I79E` gave an ABA EC50 of 31.3 µM.
`I172L` gave an ABA EC50 of 2.76 µM.
The ABA EC50 of `I172K` is reported as 27 µM.
The ABA EC50 of `I172D` is reported as 599 µM.
With `E14L` the ABA EC50 was 10.3 µM.
The ABA EC50 of `I57T` is reported as 91.5 µM.
With `I133L` the ABA EC50 was 2.49 µM.
`E125H` gave an ABA EC50 of 1.82 µM.
`D96E` gave an ABA EC50 of 3.18 µM.
With `Q2K` the ABA EC50 was 1.94 µM.

Series 4 — target: CCNF, cyclin fold, Cln2 fusion (human); technique: yeast growth competition, sequencing; medium: yeast; notes: strong parent motif; relative to: not given; direction: higher = stronger binding
Starting sequence: INSM1 docking peptide (human); PKAIRKLHFEDEV
For `H8V`, “normalised enrichment score” read 7.67.
Under “normalised enrichment score”, `A3Q` is recorded as 4.75.
`F9W`: “normalised enrichment score” 4.3.
`F9Y` — result for “normalised enrichment score”: 4.66.
For `D11F`, “normalised enrichment score” read 7.68.
`E10R`: “normalised enrichment score” 6.85.
`A3M` — result for “normalised enrichment score”: 5.62.
`H8C`: “normalised enrichment score” 7.9.
Under “normalised enrichment score”, `L7C` is recorded as 0.371.
Under “normalised enrichment score”, `E12P` is recorded as 7.92.
Under “normalised enrichment score”, `D11L` is recorded as 7.9.
Under “normalised enrichment score”, `A3F` is recorded as 6.12.
Under “normalised enrichment score”, `E10V` is recorded as 7.51.
Under “normalised enrichment score”, `H8N` is recorded as 7.06.
`L7A` — result for “normalised enrichment score”: 0.156.
`R5E` — result for “normalised enrichment score”: 0.133.
`I4Q`: “normalised enrichment score” 8.18.
Under “normalised enrichment score”, `K6A` is recorded as 6.32.
`L7M`: “normalised enrichment score” 0.0275.
Under “normalised enrichment score”, `I4T` is recorded as 6.76.
`E10C`: “normalised enrichment score” 7.52.
`K2D` — result for “normalised enrichment score”: 6.33.
Under “normalised enrichment score”, `A3D` is recorded as 0.172.
Under “normalised enrichment score”, `K6W` is recorded as 2.58.
For `A3L`, “normalised enrichment score” read 6.42.

Series 5 — technique: RNA Bind-n-Seq; form: RNA; medium: in vitro; concentration: 200 nM; notes: whole 134-nt RNA, ends assumed; with: 150 mM LiCl; relative to: input library; direction: higher = stronger binding; library: 7-deaza-guanosine replaces G
Target: Ras GTPase-activating protein-binding protein 1, full length (G3BP1, Homo sapiens, UniProt Q13283)
UniProt Q13283, sequence (whole entry, looked up): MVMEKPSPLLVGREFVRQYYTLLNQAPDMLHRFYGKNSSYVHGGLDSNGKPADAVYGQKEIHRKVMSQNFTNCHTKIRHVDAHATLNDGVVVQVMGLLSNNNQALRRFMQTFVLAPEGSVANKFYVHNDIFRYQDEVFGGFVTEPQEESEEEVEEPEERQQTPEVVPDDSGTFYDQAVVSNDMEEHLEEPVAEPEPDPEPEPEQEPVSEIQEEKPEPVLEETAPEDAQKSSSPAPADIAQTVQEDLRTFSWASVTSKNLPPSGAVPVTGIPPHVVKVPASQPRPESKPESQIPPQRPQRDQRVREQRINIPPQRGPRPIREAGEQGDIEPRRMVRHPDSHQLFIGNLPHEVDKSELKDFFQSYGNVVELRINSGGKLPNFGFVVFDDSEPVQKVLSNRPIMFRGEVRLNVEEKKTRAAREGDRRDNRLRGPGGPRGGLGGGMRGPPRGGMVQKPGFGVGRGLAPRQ
Constant ends, left off below: GGGAGUUCUACAGUCCGACGAUC … UGGAAUUCUCGGGUGUCAAGG
With `CACAGACAACACGCACCCACACAGACACAGAGGUAAGGGGUUGGGAUGGGGACAGGGUGCACAGCAGGGCGGGGUAGGACCCCAGCCCCU` the log2 enrichment was 0.295.
For `CUGUGCUACACAUCGUAUGUACCGAAUCGGGCCCCCCCGGGGCCCCCCCGGCCCCCCCGGGGAAAGUAUUAUGUUACGCCGUUCGGAUCU`, the log2 enrichment was -0.609.
With `CAAGUCCUGUGCUACACAUCGUAUGUACCGAAUCGGAGGUUUUUGGAAAAAAAGGAAAGUAUUAUGUUACGCCGUUCGGAUCUGCACUUC` the log2 enrichment was -0.253.
For `ACCAUGCAGGUGGGCAUCUUUGGGAAGUGGGGCAAGGGGGGGAUAGGGAGGGGGGUAACACUUUGGGAACAAGUGGUCCCAGGUCGUUUC`, the log2 enrichment was 0.241.
With `UGGGAGGUGUAUUUUGUUUAUUUUUUUAGCUCAUUUCCAGGGGUGGGAAUUUUUUUUUAAUAUGUGUCAUGAAUAAAGUUGUUUUUGAAA` the log2 enrichment was 0.0849.
For `UCCUGUGCUACACAUCGUAUGUACCGAAUCGGGGUUUUUGGGGUUUUUUUGGGGUGGGGAAAGUAUUAUGUUACGCCGUUCGGAUCUGCA`, the log2 enrichment was 0.735.
The log2 enrichment of `CUGUGCUACACAUCGUAUGUACCGAAUCGGGGAAAAAAAGGGGUUUUUGGGGUUUUUGGGGAAAGUAUUAUGUUACGCCGUUCGGAUCUG` is reported as -1.33.
The log2 enrichment of `CACAGACAACACGCACCCACACAGACACAAAAGGAAGGGGUUGGGAUGGGGACAGGGUGCACAGCAGGGCGGGGUAGGACCCCAGCCCCU` is reported as -0.256.
The log2 enrichment of `UGGGAGGUGGAUUUUGUUUAUUUUUUUAGCUCAUUUCCAGGGGUGGGAAUUUUUUUUUAAUAUGUGUCAUGAAUAAAUUUGUUUUUGAAA` is reported as -0.222.
With `UCCUGUGCUACACAUCGUAUGUACCGAAUCGGGGUUUUUGGGUUUUUGGGUUUUUGGGGAAAGUAUUAUGUUACGCCGUUCGGAUCUGCA` the log2 enrichment was -0.0559.
For `GUCCUGUGCUACACAUCGUAUGUACCGAAUCGGGGAAAGGGGUUUGGGGUUUUUGGGGAAAGUAUUAUGUUACGCCGUUCGGAUCUGCAC`, the log2 enrichment was -0.725.

Some of these lines once more (series 1):
Under “mean fluorescence intensity”, `2'F-ANA at 1 3 4 5 8 9 12 13 14` is recorded as 44.8 a.u.
Under “mean fluorescence intensity”, `2'F-ANA at 5 7 10 11 13 14 15` is recorded as 47.8 a.u.
For `2'F-ANA at 1 3 5 7 9 11 12 13 15`, “mean fluorescence intensity” read 74.7 a.u.
`2'F-ANA at 1 2 3 5 8 9 10 12` — result for “mean fluorescence intensity”: 51.4 a.u.
For `2'F-ANA at 1 3 5 6 7 8 9 11 14 15`, “mean fluorescence intensity” read 49.4 a.u.
